{"data": "Measurements collected from several papers", "note": "Protocols differ between the studies behind these lines. ± marks the error that the study gave.", "UniProt P08183, sequence (whole entry, looked up)": "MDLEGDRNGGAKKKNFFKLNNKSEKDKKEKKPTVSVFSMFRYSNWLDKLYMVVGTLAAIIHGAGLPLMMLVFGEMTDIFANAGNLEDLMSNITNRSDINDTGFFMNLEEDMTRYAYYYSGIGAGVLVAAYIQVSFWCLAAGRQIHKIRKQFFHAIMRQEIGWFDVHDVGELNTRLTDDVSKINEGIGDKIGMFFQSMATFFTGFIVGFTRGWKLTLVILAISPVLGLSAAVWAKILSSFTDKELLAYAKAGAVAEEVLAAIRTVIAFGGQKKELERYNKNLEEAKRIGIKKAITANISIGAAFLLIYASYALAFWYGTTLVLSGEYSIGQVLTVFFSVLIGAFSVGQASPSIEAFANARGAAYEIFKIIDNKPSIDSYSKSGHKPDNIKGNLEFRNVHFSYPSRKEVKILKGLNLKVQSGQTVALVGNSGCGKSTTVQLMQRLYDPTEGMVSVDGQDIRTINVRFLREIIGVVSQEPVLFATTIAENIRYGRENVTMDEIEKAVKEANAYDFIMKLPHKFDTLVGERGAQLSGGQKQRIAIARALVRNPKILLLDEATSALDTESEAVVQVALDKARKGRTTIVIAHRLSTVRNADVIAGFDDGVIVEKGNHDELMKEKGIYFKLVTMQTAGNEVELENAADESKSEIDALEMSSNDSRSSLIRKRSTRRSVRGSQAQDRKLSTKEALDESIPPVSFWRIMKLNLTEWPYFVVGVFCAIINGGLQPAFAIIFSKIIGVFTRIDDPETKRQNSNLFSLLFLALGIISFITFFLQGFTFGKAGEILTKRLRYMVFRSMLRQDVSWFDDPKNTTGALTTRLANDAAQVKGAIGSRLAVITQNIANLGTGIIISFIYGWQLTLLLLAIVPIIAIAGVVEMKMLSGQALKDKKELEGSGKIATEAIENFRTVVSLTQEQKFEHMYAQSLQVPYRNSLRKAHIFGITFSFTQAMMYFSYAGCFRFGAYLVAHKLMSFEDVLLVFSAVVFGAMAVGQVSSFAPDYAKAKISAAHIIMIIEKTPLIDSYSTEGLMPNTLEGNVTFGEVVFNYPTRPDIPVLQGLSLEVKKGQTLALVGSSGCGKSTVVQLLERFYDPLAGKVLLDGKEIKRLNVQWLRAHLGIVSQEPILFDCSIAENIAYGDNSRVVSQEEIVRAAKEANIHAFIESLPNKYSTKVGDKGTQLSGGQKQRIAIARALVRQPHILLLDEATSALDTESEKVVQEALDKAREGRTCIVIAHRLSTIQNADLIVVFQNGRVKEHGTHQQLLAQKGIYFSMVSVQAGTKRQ", "UniProt P08684, sequence (whole entry, looked up)": "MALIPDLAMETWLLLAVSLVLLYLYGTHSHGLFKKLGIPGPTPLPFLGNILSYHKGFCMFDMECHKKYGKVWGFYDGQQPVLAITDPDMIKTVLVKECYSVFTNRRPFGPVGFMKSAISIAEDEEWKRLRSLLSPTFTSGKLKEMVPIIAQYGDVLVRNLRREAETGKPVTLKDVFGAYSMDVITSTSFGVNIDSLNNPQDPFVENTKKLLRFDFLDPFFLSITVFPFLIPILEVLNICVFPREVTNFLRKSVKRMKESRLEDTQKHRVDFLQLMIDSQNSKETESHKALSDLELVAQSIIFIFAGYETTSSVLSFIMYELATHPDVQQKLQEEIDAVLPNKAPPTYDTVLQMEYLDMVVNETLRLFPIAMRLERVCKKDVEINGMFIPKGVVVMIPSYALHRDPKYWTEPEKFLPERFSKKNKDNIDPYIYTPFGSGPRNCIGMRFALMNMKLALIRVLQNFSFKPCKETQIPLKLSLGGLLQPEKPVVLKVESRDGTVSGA"}
{"SMILES": "CC[C@H]1[C@@H](O)[C@@H]2[C@H](CC[C@]3(C)[C@@H]([C@H](C)CCNC(=O)NS(=O)(=O)c4ccc(C(C)(C)C)cc4)CC[C@@H]23)[C@@]2(C)CC[C@@H](O)C[C@@H]12", "target or system": "ABCB1 (Homo sapiens, UniProt P08183)", "test": "substrate", "system": "human, plasma", "conditions": "dose not given, together with: quinidine", "endpoint": "AUC(0-t) mean", "value": "386 ng·h/mL"}
{"SMILES": "COc1c(O)c(C)cc2c1C(=O)c1c(O)cccc1C2=O", "target or system": "HK-2 co-cultured with HepaRG", "test": "MTT", "conditions": "66.67 µM, 24 h", "scale": "relative to: untreated control", "endpoint": "viability", "value": "77.1 ± 14%"}
{"SMILES": "N#Cc1ccc(Nc2nc(N)cc(Oc3ccc(-c4ccc(C#N)cc4)cc3Cl)n2)cc1", "target or system": "MT4 uninfected", "endpoint": "CC50", "value": "6.4 µM"}
{"SMILES": "CCCCc1oc2ccc(NS(C)(=O)=O)cc2c1C(=O)c1ccc(OCCCN(CCCC)CCCC)cc1", "target or system": "H9 human embryonic stem cell aggregates", "test": "qRT-PCR", "system": "3D aggregates", "conditions": "0.2 µM, 5 days, developmental toxicity model", "scale": "direction not given", "endpoint": "ALERT score", "value": 10}
{"SMILES": "c1csc(CNc2cc[nH]n2)c1", "target or system": "human peripheral blood lymphocytes, female", "conditions": "2160 µg/mL, 4 h, without S9", "endpoint": "cells with structural aberrations", "value": "5%"}
{"SMILES": "CC[C@H](CO)N(CCN(N=O)[C@H](CC)CO)N=O", "target or system": "Salmonella typhimurium", "test": "mutagenicity, Ames plate incorporation", "system": "TA1537", "conditions": "150 µg/plate, without S9, methanol", "endpoint": "revertant colonies per plate", "value": "12.7 ± 2"}
{"SMILES": "O=C(Nc1nc2cccc(-c3ccc(CN4CCS(=O)(=O)CC4)cc3)n2n1)C1CC1", "test": "refers to: epigastric discomfort", "system": "human rheumatoid arthritis patients", "conditions": "oral, 150 mg once daily, 4 weeks, regardless of relatedness", "endpoint": "treatment-emergent adverse events", "value": "0%"}
{"SMILES": "Nc1ccc2cc3ccccc3cc2c1", "target or system": "Salmonella typhimurium", "test": "mini-Ames test", "system": "TA97a", "conditions": "20.0 µg/well, with rat liver S9", "endpoint": "revertants per well", "value": 109}
{"SMILES": "CC(=O)c1c(C)cc2cc(O)cc(O[C@@H]3O[C@H](CO)[C@@H](O)[C@H](O)[C@H]3O)c2c1O", "target or system": "HK-2 co-cultured with HepaRG", "test": "MTT", "conditions": "133.33 µM, 24 h", "scale": "relative to: untreated control", "endpoint": "cell viability", "value": "100 ± 10.9%"}
{"SMILES": "Cc1cc(Nc2ncnc3ccc(NC4=NC(C)(CO)CO4)cc23)ccc1Oc1ccn2ncnc2c1 (stereo not drawn)", "target or system": "Cytochrome P450 3A4 (CYP3A4, Homo sapiens, UniProt P08684)", "system": "human, plasma", "conditions": "tucatinib, day 6, together with: itraconazole", "endpoint": "AUC(0-t) (arithmetic mean)", "value": "783 ng·h/mL"}
{"SMILES": "COc1cc2c(c(O)c1OC)C(=O)c1c(cc(C)c(O)c1OC)C2=O", "target or system": "HK-2 co-cultured with HepaRG", "test": "MTT", "conditions": "16.67 µM, 24 h", "scale": "relative to: untreated control", "endpoint": "cell viability", "value": "77.3 ± 8%"}
{"SMILES": "Cc1cc(Nc2ccc(S(F)(F)(F)(F)F)cc2)n2nc(C(C)(F)F)nc2n1", "target or system": "Plasmodium vivax", "test": "12-lead ECG", "system": "malaria patients", "conditions": "oral, 400 mg, increase above 60 ms", "endpoint": "patients with QTcF increase", "value": "0%"}
{"SMILES": "COc1cc2c(c(OC)c1OC)C(=O)c1c(cc(C)c(O)c1OC)C2=O", "target or system": "HK-2 co-cultured with HepaRG", "test": "MTT", "conditions": "16.67 µM, 24 h", "scale": "relative to: untreated control", "endpoint": "viability", "value": "81.2 ± 5.09%"}
{"SMILES": "Cc1cc(N)c2c(OCC(C)(C)C(=O)NC(C)C)cccc2n1", "target or system": "Salmonella typhimurium", "test": "reverse mutation, plate incorporation", "system": "TA100", "conditions": "1 µg/plate, without S9", "endpoint": "mean revertant colonies", "value": "59 colonies/plate"}
{"SMILES": "COc1c(O[C@@H]2O[C@H](CO)[C@@H](O)[C@H](O)[C@H]2O)c(C)cc2c1C(=O)c1c(O)cccc1C2=O", "target or system": "HK-2 co-cultured with HepaRG", "test": "MTT", "conditions": "16.67 µM, 24 h", "scale": "relative to: untreated control", "endpoint": "cell viability", "value": "87.3 ± 4.56%"}
{"SMILES": "O=C1Nc2ccc(Cl)cc2[C@@](C#CC2CC2)(C(F)(F)F)O1", "target or system": "MT4 uninfected", "endpoint": "CC50", "value": "> 6.33 µM"}
{"SMILES": "COc1c(O)cc2c(c1O)C(=O)c1c(cc(C)c(O)c1OC)C2=O", "target or system": "HK-2 co-cultured with HepaRG", "test": "MTT", "conditions": "66.67 µM, 48 h", "scale": "relative to: untreated control", "endpoint": "viability", "value": "64.9 ± 6.83%"}
{"SMILES": "Cc1noc(C)c1Cn1cc(N2C(=O)CN(Cc3cccc(O)c3)C2=O)cn1", "target or system": "human blood lymphocytes", "conditions": "1100 µg/mL, 3 h, with 5% S9", "endpoint": "aberrant cells without gaps", "value": "3.9%"}
{"note": "For quick reference, copied from above:"}
{"SMILES": "O=C(Nc1nc2cccc(-c3ccc(CN4CCS(=O)(=O)CC4)cc3)n2n1)C1CC1", "test": "refers to: epigastric discomfort", "system": "human rheumatoid arthritis patients", "conditions": "oral, 150 mg once daily, 4 weeks, regardless of relatedness", "endpoint": "treatment-emergent adverse events", "value": "0%"}
